Results pooled from the literature.
Parts stem from different laboratories: compare values within a part only. Numbers after ± are the reported error.
Sequence of UniProt P0DOF5 (whole entry, looked up): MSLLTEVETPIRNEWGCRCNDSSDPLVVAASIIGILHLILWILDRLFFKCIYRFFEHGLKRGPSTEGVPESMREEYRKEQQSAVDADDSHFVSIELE
Sequence of UniProt Q8JUX6 (whole entry, looked up): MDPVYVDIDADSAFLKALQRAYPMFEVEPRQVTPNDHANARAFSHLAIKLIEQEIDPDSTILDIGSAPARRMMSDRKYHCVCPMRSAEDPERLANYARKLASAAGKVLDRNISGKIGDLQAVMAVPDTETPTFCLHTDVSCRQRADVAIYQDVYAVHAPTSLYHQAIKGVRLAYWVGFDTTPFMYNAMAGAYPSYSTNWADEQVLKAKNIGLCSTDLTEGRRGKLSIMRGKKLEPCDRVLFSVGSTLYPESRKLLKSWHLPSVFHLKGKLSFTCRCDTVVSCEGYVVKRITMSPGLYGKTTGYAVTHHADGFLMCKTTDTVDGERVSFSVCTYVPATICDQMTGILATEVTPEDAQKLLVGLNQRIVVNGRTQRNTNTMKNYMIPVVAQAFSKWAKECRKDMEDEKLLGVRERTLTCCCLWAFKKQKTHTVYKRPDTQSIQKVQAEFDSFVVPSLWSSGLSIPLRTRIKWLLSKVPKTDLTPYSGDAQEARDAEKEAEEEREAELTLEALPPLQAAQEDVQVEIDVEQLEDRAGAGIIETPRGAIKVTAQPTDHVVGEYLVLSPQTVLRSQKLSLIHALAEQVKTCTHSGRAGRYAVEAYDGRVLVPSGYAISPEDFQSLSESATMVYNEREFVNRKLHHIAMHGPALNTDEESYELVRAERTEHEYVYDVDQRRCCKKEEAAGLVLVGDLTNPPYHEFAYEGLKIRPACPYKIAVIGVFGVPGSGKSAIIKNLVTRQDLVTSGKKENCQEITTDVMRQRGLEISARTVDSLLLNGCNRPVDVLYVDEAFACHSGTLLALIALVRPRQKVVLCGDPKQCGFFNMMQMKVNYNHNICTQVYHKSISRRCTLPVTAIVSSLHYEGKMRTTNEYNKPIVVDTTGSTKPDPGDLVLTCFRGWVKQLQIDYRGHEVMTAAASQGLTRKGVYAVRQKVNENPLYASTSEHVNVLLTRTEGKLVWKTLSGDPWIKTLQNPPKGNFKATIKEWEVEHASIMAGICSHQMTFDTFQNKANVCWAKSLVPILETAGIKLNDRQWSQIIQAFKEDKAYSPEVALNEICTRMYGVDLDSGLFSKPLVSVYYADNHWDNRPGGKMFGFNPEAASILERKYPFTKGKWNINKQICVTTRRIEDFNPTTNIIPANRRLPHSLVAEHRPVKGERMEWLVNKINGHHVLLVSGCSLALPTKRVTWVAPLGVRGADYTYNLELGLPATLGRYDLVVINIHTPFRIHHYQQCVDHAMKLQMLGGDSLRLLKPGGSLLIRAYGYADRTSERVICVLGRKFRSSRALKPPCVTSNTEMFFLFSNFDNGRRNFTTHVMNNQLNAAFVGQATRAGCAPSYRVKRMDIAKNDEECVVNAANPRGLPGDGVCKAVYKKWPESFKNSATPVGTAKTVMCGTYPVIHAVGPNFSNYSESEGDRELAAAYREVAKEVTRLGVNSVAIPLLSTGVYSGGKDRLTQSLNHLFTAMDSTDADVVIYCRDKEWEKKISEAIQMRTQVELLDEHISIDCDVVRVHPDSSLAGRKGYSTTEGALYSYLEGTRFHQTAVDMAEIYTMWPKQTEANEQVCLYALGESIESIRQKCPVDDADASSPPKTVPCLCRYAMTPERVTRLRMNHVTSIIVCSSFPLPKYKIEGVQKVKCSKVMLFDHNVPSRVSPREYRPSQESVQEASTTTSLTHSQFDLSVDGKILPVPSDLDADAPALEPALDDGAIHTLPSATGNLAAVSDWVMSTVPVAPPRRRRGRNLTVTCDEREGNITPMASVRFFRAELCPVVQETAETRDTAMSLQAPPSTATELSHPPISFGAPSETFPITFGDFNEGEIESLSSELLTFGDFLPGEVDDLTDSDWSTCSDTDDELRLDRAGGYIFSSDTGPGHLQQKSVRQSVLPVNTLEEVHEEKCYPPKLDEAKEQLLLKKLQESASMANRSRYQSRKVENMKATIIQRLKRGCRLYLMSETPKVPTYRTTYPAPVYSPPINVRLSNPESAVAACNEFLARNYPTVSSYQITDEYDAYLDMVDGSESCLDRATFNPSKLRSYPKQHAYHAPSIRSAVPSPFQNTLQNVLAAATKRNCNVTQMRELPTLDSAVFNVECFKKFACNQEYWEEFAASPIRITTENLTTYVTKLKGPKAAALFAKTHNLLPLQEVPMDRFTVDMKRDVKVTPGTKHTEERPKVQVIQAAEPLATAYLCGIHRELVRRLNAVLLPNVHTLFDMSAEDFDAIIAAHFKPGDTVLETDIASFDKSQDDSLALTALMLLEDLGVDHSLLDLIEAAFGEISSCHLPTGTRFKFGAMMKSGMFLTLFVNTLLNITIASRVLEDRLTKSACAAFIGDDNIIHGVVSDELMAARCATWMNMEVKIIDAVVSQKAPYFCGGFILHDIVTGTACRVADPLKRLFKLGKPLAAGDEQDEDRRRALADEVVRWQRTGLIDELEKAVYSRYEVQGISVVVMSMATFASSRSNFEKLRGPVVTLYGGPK

Series 1 — mode: inhibitor; organism: SARS-CoV-2
Target: Replicase polyprotein 1ab, nsp13 helicase (rep, Severe acute respiratory syndrome coronavirus 2, UniProt P0DTD1)
Structure (SMILES) | IC50
S=C(S)N1CCCC1 | 3.22 µM
CC(C)Nc1cccnc1N1CCN(C(=O)c2cc3cc(NS(C)(=O)=O)ccc3[nH]2)CC1 | 39.7 µM
COC(=O)C1=C(C)NC(C)=C(C(=O)OCC(C)C)C1c1ccccc1[N+](=O)[O-] (stereo not shown) | 9.65 µM
N=C(N)NN=C1C=CC(=NNC(N)=S)C=C1 | 299 µM
O=C1C2CC=CCC2C(=O)N1SC(Cl)(Cl)Cl (stereo not shown) | 1.86 µM
COCCCOc1ccnc(C[S+]([O-])c2nc3ccccc3[nH]2)c1C (stereo not shown) | 27.9 µM
COC(=O)C1=C(C)NC(C)=C(C(=O)OC)C1c1ccccc1[N+](=O)[O-] | 8.11 µM
O=[N+]([O-])C(Br)(CO)CO | 3.35 µM
C[C@H](NC(=O)/C(C#N)=C/c1cccc(Br)n1)c1ccccc1 | 15.5 µM
CC(=O)C(=Cc1cc(O)c(O)c([N+](=O)[O-])c1)C(C)=O | 7.07 µM
COc1cc(C(=S)N2CCOCC2)ccc1O | 58.2 µM
COc1cc2c(cc1OC)-c1cc3ccc(OC)c(OC)c3c[n+]1CC2 | 109 µM
CCOC(=O)Nc1ccc(NCc2ccc(F)cc2)nc1N | 10.3 µM
CN(C)C(=S)SSC(=S)N(C)C | 0.62 µM
CC(C)N(CCC(=O)c1ccc2ccccc2c1)Cc1ccccc1 | 1.9 µM

Series 2 — read-out: enzyme activity; mode: inhibitor; tested at: 20 µM; notes: hit confirmation
Target: Replicase polyprotein 1ab, main protease (rep, Severe acute respiratory syndrome coronavirus 2, UniProt P0DTD1)
Structure (SMILES) | inhibition
CN(C)c1ccc2c(c1)Sc1cc(N(C)C)ccc1N2 | 47.2%
COc1cc(Br)c(Nc2nc(-c3c(C)nc4ncccn34)cs2)c(Br)c1 | -3.5%
CC1(C)CN2C(CS/C(=N/C3CCCCC3)NC3CCCCC3)=CSC2=N1 | 1%

Single results of other studies
nanI: Sialidase (nanI, Clostridium perfringens, UniProt A0A0H2YQR1)
Compound | tested on | assay | test system | setting | how to read | quantity | value
Cc1ccc(C(C)Nc2nc(N3CCNCC3)nc3ccccc23)cc1 (stereo not shown) | SARS-CoV-2 | cytopathic effect, cell-based CPE | USA_WA1/2020 | round 2, 5-point dilution |  | efficacy | 90.1%
CC(=O)N(C)[C@H]1[C@H]([C@H](O)[C@H](O)CO)OC(C(=O)O)=C[C@@H]1O | nanI | enzyme activity, inhibitor |  |  |  | IC50 | > 500 µM
NC(=O)N[C@@H](CCC(=O)O)C(=O)O | HEK-293T | pseudovirus infection, FDA-approved drug library screen | VSV pseudotyped with SARS-CoV-2 spike | 10 µM, 16 h | reference: vehicle-treated | GFP-positive cells | 82.2%
Cc1cc(/C=C/C#N)cc(C)c1Nc1nc(Nc2ccc3cc(C#N)ccc3c2)ncc1N | HIV-1 | viral replication, single-round infection | RT mutant V106A/L234I |  |  | EC50 | 0.0257 ± 0.0021 µM
CCCCCc1cn([C@H]2[C@H]([C@H](O)[C@H](O)CO)OC(C(=O)O)=C[C@@H]2O)nn1 | nanI | enzyme activity, inhibitor |  |  |  | IC50 | > 500 µM
O=C(N1CCC2(CC1)C[C@H](CN1CCCCS1(=O)=O)CCO2)C1(c2ccccc2)CCCC1 | Polyprotein P1234, nsP2 (Chikungunya virus, UniProt Q8JUX6) | ATPase activity, inhibitor |  | full-length nsP2 |  | IC50 | 0.84 µM
CC(NC(=O)C(Cc1ccccc1)NC(=O)OCc1ccccc1)C(=O)CF (stereo not shown) | SARS-CoV-2 | viral replication | Huh-7 | 48 h |  | EC50 | 9.61 µM
CCCCCCC(C)(C)c1cc(O)c2c(c1)OC(C)(C)C1CCC(=O)CC21 (stereo not shown) | SARS-CoV-2 | viral replication, GFP plate reader screen |  | cell-based |  | EC50 | 8.91 µM
CCc1ccc(Sc2cc(C(=O)NCCCN3CCCC(C)C3)c3ccccc3n2)cc1 (stereo not shown) | SARS-CoV-2 | cytopathic effect | USA_WA1/2020 | retest 8-point |  | maximum response | 84.1%
NC12CC3CC(CC(C3)C1)C2 | Matrix protein 2 (Influenza A virus, UniProt P0DOF5) | channel activity, inhibitor |  | 100 µM, 2 min |  | remaining activity | 6.1 ± 1%
C=C1[C@H](CO)[C@@H](O)C[C@@H]1n1cnc2c(=O)[nH]c(N)nc21 | HEK-293T | viral entry |  | 10 µM, 16 h | reference: vehicle | GFP-positive cells | 85.8%
CC[C@H](C)[C@H](NC(=O)[C@H](CC(C)C)NC(=O)[C@H](Cc1c[nH]c2ccccc12)NC(=O)[C@H](CCC(N)=O)NC(=O)[C@@H](NC(=O)[C@H](Cc1ccccc1)NC(=O)[C@H](C)NC(=O)[C@H](CCCCNC(=O)COCCOCCNC(=O)COCCOCCNC(=O)CC[C@H](NC(=O)CCCCCCCCCCCCCCCCCCC(=O)O)C(=O)O)NC(=O)[C@H](CCC(N)=O)NC(=O)[C@H](C)NC(=O)[C@@H](NC(=O)[C@H](CCCCN)NC(=O)[C@H](CC(=O)O)NC(=O)[C@H](CC(C)C)NC(=O)C(C)(C)NC(=O)[C@@H](NC(=O)[C@H](CO)NC(=O)[C@H](Cc1ccc(O)cc1)NC(=O)[C@H](CC(=O)O)NC(=O)[C@H](CO)NC(=O)[C@@H](NC(=O)[C@H](Cc1ccccc1)NC(=O)[C@@H](NC(=O)CNC(=O)[C@H](CCC(=O)O)NC(=O)C(C)(C)NC(=O)[C@@H](N)Cc1ccc(O)cc1)[C@@H](C)O)[C@@H](C)O)[C@@H](C)CC)[C@@H](C)CC)C(C)C)C(=O)N[C@@H](C)C(=O)NCC(=O)NCC(=O)N1CCC[C@H]1C(=O)N[C@@H](CO)C(=O)N[C@@H](CO)C(=O)NCC(=O)N[C@@H](C)C(=O)N1CCC[C@H]1C(=O)N1CCC[C@H]1C(=O)N1CCC[C@H]1C(=O)N[C@@H](CO)C(N)=O |  |  | patients with type 2 diabetes, plasma | 0.5 mg repeated, day 22, geometric mean |  | apparent volume of distribution (Vz/F) | 10.4 L
COc1cc2c(Oc3ccc4[nH]c(C)cc4c3F)ccnc2cc1OCC1(N)CC1 | SARS-CoV-2 | viral replication, high-content imaging screen |  | cell-based |  | EC50 | > 100 µM
